Measured values collected from several papers.
Protocols differ between the studies behind these lines. ± gives the spread as reported.
HDAC6 ZnF-UBD domain: Protein deacetylase HDAC6, ZnF-UBD domain (HDAC6, Homo sapiens, UniProt Q9UBN7)
UniProt Q9UBN7, sequence (whole entry, looked up): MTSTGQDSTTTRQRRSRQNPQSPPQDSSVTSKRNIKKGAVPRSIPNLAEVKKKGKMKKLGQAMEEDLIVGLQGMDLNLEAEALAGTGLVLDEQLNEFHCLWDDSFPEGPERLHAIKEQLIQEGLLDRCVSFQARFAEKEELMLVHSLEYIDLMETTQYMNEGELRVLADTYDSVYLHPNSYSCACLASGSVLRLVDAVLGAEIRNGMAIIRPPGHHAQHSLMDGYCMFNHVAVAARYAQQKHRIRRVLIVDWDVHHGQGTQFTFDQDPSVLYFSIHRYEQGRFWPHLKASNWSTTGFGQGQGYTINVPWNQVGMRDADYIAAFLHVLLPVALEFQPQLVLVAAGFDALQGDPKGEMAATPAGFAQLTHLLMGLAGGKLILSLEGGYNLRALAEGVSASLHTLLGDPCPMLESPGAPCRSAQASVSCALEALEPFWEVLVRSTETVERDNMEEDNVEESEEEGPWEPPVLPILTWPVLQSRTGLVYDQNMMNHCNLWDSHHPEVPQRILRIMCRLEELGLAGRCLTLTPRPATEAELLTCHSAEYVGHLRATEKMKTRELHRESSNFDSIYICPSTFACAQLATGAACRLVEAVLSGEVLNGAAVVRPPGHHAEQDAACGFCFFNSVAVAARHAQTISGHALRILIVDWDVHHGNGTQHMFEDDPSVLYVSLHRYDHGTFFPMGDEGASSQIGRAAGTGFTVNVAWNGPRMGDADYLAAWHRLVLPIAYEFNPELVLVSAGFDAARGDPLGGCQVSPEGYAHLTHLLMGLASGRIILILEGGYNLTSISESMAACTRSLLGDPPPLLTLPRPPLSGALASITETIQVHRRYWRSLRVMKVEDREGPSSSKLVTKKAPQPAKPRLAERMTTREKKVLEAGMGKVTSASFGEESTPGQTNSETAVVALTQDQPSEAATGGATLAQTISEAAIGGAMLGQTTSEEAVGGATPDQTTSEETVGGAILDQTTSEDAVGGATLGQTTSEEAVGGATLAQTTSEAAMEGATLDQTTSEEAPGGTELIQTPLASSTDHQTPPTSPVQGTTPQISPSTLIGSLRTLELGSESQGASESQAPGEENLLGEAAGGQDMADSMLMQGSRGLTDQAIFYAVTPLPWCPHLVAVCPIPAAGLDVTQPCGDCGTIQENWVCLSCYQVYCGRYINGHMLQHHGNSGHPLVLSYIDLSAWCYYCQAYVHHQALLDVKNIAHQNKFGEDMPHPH
UniProt O70423, sequence (whole entry, looked up): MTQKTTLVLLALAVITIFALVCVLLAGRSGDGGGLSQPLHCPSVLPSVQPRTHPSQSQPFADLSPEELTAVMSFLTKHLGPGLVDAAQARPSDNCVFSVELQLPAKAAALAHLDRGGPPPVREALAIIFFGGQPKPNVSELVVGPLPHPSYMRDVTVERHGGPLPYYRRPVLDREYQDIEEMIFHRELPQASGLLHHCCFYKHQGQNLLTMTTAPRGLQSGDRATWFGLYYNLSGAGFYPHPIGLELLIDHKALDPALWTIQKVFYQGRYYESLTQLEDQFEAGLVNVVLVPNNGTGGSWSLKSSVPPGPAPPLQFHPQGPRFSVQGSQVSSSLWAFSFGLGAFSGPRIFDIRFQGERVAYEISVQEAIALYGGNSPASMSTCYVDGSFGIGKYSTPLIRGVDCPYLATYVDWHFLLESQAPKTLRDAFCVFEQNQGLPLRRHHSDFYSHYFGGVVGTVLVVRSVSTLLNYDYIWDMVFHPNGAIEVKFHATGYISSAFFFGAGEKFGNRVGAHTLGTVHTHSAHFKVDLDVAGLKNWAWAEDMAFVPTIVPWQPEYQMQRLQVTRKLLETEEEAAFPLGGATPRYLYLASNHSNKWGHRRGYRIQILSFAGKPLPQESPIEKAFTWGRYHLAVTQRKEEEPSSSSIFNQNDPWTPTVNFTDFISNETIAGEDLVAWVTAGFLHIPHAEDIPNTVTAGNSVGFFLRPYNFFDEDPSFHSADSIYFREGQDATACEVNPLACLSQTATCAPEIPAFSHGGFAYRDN
UniProt P08684, sequence (whole entry, looked up): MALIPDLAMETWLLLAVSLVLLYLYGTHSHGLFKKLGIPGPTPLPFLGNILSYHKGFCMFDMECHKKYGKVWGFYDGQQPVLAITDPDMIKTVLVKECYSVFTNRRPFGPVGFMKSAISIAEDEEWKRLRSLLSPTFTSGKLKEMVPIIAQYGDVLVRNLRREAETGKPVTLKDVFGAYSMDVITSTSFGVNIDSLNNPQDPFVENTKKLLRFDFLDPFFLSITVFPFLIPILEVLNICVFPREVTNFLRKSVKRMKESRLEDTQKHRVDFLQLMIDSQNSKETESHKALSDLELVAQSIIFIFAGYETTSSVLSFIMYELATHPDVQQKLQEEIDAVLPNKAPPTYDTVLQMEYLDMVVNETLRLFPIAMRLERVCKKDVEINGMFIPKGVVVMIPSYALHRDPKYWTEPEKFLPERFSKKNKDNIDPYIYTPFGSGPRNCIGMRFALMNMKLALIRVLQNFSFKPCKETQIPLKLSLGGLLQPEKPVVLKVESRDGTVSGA
UniProt P50613, sequence (whole entry, looked up): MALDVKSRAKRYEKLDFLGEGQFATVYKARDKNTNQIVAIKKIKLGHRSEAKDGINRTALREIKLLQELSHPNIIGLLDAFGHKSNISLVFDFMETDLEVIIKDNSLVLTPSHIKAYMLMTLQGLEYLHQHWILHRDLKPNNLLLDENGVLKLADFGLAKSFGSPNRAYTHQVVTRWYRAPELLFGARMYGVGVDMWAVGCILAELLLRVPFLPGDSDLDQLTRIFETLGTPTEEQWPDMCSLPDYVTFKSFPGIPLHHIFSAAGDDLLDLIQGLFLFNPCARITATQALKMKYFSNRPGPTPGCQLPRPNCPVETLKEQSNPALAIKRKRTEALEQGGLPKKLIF

SMILES	tested on	assay	system	setting	scale	endpoint	value
COc1ccc2c(c1)CN(C(=O)CCN1CCC(Cc3ccccc3)CC1)CC[S@@+]2[O-]	–	telemetry	conscious male beagle dogs	intravenous, 8 mg/kg, 24 h	–	QRS duration	33 ± 10 ms
O=c1cc(-c2ccc(OS(=O)(=O)[O-])cc2)oc2cc(OS(=O)(=O)[O-])cc(OCc3cccc(COc4cc(OS(=O)(=O)[O-])cc5oc(-c6ccc(OS(=O)(=O)[O-])cc6)cc(=O)c45)n3)c12.[Na+].[Na+].[Na+].[Na+]	–	–	pooled human plasma	–	–	concentration doubling APTT	> 855 µM
CN1CCc2ccc(/C=C/c3ccc4cc(C(=N)N)ccc4c3)cc2C1C1CCCCC1 (stereo not drawn)	–	–	aqueous buffer	pH 7.4	–	solubility	194 µg/mL
CNc1cc[n+](CCNC(=O)c2ccn3c(-c4c(C)noc4C)cnc3c2)cc1.[Cl-]	–	–	aqueous buffer	initial, pH 10	–	total organic impurities	0 % peak area
CCCC1CCC(c2ccc(OCC)c(F)c2F)CC1 (stereo not drawn)	–	–	rat, placenta	10 ng/mL in perfusate, low dose, mixture of 21 LCMs	–	placental accumulation	2.5 ± 1.76 ng/g
COc1ccc([C@@H](O)c2cc(-c3ncnc4cc(N5CCOCC5)ccc34)c(F)cc2Cl)nn1	–	–	locally advanced rectal cancer	all dose levels overall, with: capecitabine and radiotherapy	–	TEAE, radiation skin injury	32%
C=CCN1CC(=O)N2[C@@H](Cc3ccc(O)cc3F)C(=O)N(Cc3cccc(N4CC(N5CCN(CC)CC5)C4)n3)C[C@@H]2N1C(=O)NCc1ccccc1	–	–	advanced solid tumour patients	oral, 15 mg twice daily, any grade, dose-escalation	–	treatment-related AST increased	0%
Cc1cc(Nc2ccc(S(F)(F)(F)(F)F)cc2)n2nc(C(C)(F)F)nc2n1	Plasmodium falciparum	LC-MS/MS	malaria patients, plasma	oral, 250 mg	–	Cmax	4250 ng/mL
CCOC(=O)N1C[C@@H](c2ccc(Cl)cc2)N[C@H](c2cc(Cl)cc(Cl)c2)C1	–	shake-flask, LC-HRMS	aqueous buffer	16 h, pH 6.8	–	solubility	< 4 µM
CC[C@@H]1[C@H](F)C(=O)N[C@@H]1COc1nccc2cc(C(N)=O)c(OC)cc12	Cyclin-dependent kinase 7 (CDK7, Homo sapiens, UniProt P50613)	ATP probe binding, KiNativ profiling, measured: Lys1 probe site	THP-1 cell lysate	–	–	IC50	3.3 µM
COc1cc2nccc(Oc3ccc(NC(=O)c4cc5c(n(-c6ccccc6)c4=O)CCCC5=O)nc3)c2cc1OC	–	–	patients with relapsed/refractory AML	oral, 10 mg once daily	–	drug-related TEAEs leading to discontinuation	14.3%
Cl.[2H]C([2H])([2H])CC(=O)c1cnc(NC(=O)C2CC2)cc1Nc1cccc(-c2ncn(C([2H])([2H])[2H])n2)c1OC	–	geometric mean	human	oral, 10 mg once daily, day 1, fasted, liquid, multiple dose	–	AUC(0-inf)	787 ng·h/mL
O=C1CC[C@H](N2Cc3cc(N4CCN(CC5CCN(c6ccc([C@@H]7c8ccc(O)cc8CC[C@@H]7c7ccccc7)cc6)CC5)CC4)ccc3C2=O)C(=O)N1	–	measured: Headache	human	oral, 200 mg, with: dabigatran etexilate 75 mg	–	participants with adverse event	4.2%
COC(=O)c1ccccc1-c1c2ccc(=N)cc-2oc2c1ccc1cccc(O)c12.Cl	–	–	12.5 mM aqueous NaOH	pH 12.1, 10% DMSO	–	Stokes shift	149 nm
O=C(O)CCc1ccccc1OCc1ccccn1	HDAC6 ZnF-UBD domain	–	–	–	–	Kd	> 1 mM
Cc1ccc(Sc2ccccc2N2CCNCC2)c(C)c1	–	measured: Headache	healthy adult men	oral, 20 mg single dose, 10 day	–	participants with TEAE	0%
O=c1[nH]c(=O)n([C@H]2C[C@H](O)[C@@H](CO)O2)cc1CCCC[18F]	–	–	male CD-1 nu/nu mice, RG2 tumour, spleen	intravenous, dose not given, 2 h	–	biodistribution	0.24 ± 0.05 %ID/g
CCOC(=O)N1C[C@@H](c2cc(Cl)cc(Cl)c2)N[C@@H](c2ccc(F)c(C#N)c2)C1	–	shake-flask, LC-HRMS	aqueous buffer	16 h, pH 6.8	–	solubility	< 4 µM
Cc1cc(NC2CCN(C(=O)OC3CCN(C(=O)/C=C/CN(C)C)C3)CC2)n2ncc(C(C)C)c2n1 (stereo not drawn)	–	–	patients with advanced solid tumours	dose not given, QD arm, any grade	–	patients with Ascites	5%
CN[C@@H](C)C(=O)N[C@H]1CN(C(=O)CC(C)C)CC[C@H]2CC[C@@H](C(=O)NC(c3ccccc3)c3ccccc3)N2C1=O	–	unchanged drug recovered	SCID mice, MDA-MB-231 xenograft, urine	–	–	renal clearance	0.127 mL/min
CCOC(=O)N1C[C@@H](c2ccc(N3CCCC3)cc2)N[C@@H](c2ccc(-c3ccccc3)cc2)C1	–	shake-flask, LC-HRMS	aqueous buffer	16 h, pH 6.8	–	solubility	< 4 µM
COCCOc1cnc2ccn([C@H](C)c3nnc4c(F)cc(-c5cnn(C)c5)cn34)c(=O)c2c1	–	–	patients, plasma	oral, 100 mg once daily, day 1	–	Cmax	1590 ng/mL
O=C(Nc1nc2cccc(-c3ccc(CN4CCS(=O)(=O)CC4)cc3)n2n1)C1CC1	–	measured: ankle fracture	human rheumatoid arthritis patients	oral, 150 mg once daily, 4 weeks, regardless of relatedness	–	treatment-emergent adverse events	0%
CSc1ccccc1C(=O)NCCn1cc(C(=O)NCc2cccc(C)n2)c(=O)c2cc3c(cc21)OC(F)(F)O3	–	–	Sprague-Dawley rat, male, plasma	intravenous, 5 mg/kg of parent drug	–	MRT(0-inf)	46.2 ± 19.8 min
O=C(O)Cc1nc2ccccc2o1	HDAC6 ZnF-UBD domain	–	–	–	–	Kd	> 1 mM
CCOC(=O)N1C[C@@H](c2ccc(C(C)=O)cc2)N[C@@H](C2CCC2)C1	–	shake-flask, LC-HRMS	aqueous buffer	16 h, pH 6.8	–	solubility	> 750 µM

SMILES	tested on	assay	system	setting	scale	endpoint	value
CCn1cc(C(=O)N2CCOCC2)c(=O)c2cc(NC3Cc4ccccc4C3)cnc21	–	–	human, GAD, PTSD or social anxiety disorder	dose not given, TEAE Fatigue, pooled phase trials	–	patients with adverse event	3.7%
COc1ncnn2ccc(-c3cnc4nc(C)n(Cc5nnc([C@@H](C)F)o5)c4c3)c12	–	LC-MS/MS	human, plasma	oral, 70 mg capsule, cycle 1 day 1	–	elimination half-life	293 min
CCc1cc(C(=O)NC)c2nccc(N3CCc4c(cc(Cn5ccnc5)cc4-c4cn(C)nc4C(F)(F)F)C3=O)c2c1	–	–	Sprague Dawley rats	oral, 100 mg/kg once daily, 7 days	relative to: vehicle	serum RDW change	-4.95%
O=C(O)CCC(=O)O.[2H]C([2H])([2H])Oc1cc(C)c2[nH]ccc2c1CN1CC[C@@H](C2CC2)C[C@H]1c1ccc(C(=O)O)cc1	–	multiple ascending dose	healthy Chinese subjects	200 mg once daily	–	subjects with allergic dermatitis TEAE	0%
c1ccc(-c2ccc([C@@H]3COC[C@@H](C4CC4)N3)cc2)cc1	–	shake-flask, LC-HRMS	aqueous buffer	16 h, pH 6.8	–	solubility	> 750 µM
N#Cc1ccc2c(c1)[C@H]1CCCN(C(=O)c3ccc4[nH]cnc4c3)[C@H]1C2	–	–	human, female	10 mg, day 15	–	DHEA-S level	3.4 µmol/L
O=S(=O)(NCCSc1ccccn1)c1ccc(Br)cc1	–	–	aqueous buffer	pH 7.4	–	solubility	< 4 µg/mL
NCc1cc2c(cc1F)C(=O)N(C1CCC(=O)NC1=O)C2 (stereo not drawn)	Amine oxidase [copper-containing] 3 (Mus musculus, UniProt O70423)	substrate, LC-MS/MS	recombinant mouse enzyme	10 µM, 4 h, pH 7.4, with: inhibitor 0.25 µM	–	concentration	9 µM
NC1(C(=O)N[C@@H](CCO)c2ccc(Cl)cc2)CCN(c2nc[nH]c3nccc2-3)CC1	–	–	human mCRPC patients	oral, twice daily, 4/7 days, any grade, treatment-related, with: enzalutamide 160 mg daily	–	decreased appetite incidence	53.3%
CNCCOC12CC3(C)CC(C)(CC(Cn4ncc(-c5ccc(N6CCc7cccc(C(=O)Nc8nc9ccccc9s8)c7C6)nc5C(=O)O)c4C)(C3)C1)C2	–	–	beagle dog, male, anaesthetised	intravenous bolus, 0.03 mg/kg, 135 min	relative to: baseline	heart rate change	-1%
CCOc1c([C@H](C)n2nc(C)c3c(N)ncnc32)cc(Cl)c(F)c1[C@@H]1CNC(=O)C1	–	measured: QTcF change above 60 ms	previously treated B-cell malignancy	oral, 45 mg once daily, baseline QTcF ≤450 ms	relative to: baseline	ECG observations	0%
CCOC(=O)N1C[C@@H](c2cc(F)c(O)c(F)c2)N[C@@H](c2cc3ccccc3cc2OC)C1	–	shake-flask, LC-HRMS	aqueous buffer	16 h, pH 6.8	–	solubility	< 4 µM
CNC(=O)c1ccc(-c2cnc3ncc(Cc4ccc5ncccc5c4)n3n2)cc1F	–	CTCAE v4.0, any causality	human hepatocellular carcinoma patients	oral, 600 mg twice daily, expansion cohort at RP2D	–	decreased appetite incidence (all grades)	18%
Cc1cc(Nc2ncnc3ccc(NC4=NC(C)(C)CO4)cc23)ccc1Oc1ccn2ncnc2c1	Cytochrome P450 3A4 (CYP3A4, Homo sapiens, UniProt P08684)	–	human, plasma	oral, 300 mg, day 1, single dose alone	–	AUC(0-inf), mean	3510 ng·h/mL
O=c1[nH]c(=O)n([C@H]2C[C@H](O)[C@@H](CO)O2)cc1CCCCC[18F]	–	–	male CD-1 nu/nu mice, RG2 tumour, lung	intravenous, dose not given, 2 h	–	biodistribution	0.19 ± 0.03 %ID/g
CC(C)[C@@H](CS(=O)(=O)C(C)C)N1C(=O)[C@@](C)(CC(=O)O)C[C@H](c2cccc(Cl)c2)[C@H]1c1ccc(Cl)cc1	–	–	FVB mouse, wild type, spinal cord	oral, 20 mg/kg	–	AUC(0-inf)	67 ± 8.6 ng·h/mL
CN(C)C(=N)N=C(N)N	–	measured: general and administration site disorders	healthy men	oral, dose not given, 8 days, treatment-emergent, crossover trial	–	subjects with adverse event	0%
CCN1CCN(Cc2ccc(NC(=O)c3ccc(C)c(NC(=O)c4cncc(-c5cccs5)c4)c3)cc2C(F)(F)F)CC1	–	–	C57BL/6 mice, epithelial lining fluid	intraperitoneal, 30 mg/kg	–	apparent clearance	51.3 mL/min/kg
O=C(COc1ccc(Cl)cc1)NC12CC(c3nnc([C@H]4C[C@@H](OC(F)(F)F)C4)o3)(C1)C2	–	measured: Presyncope	human	28 (unit not given)	–	adverse event incidence	10.5%
Cc1ccc([C@@H]2O[C@H](CO)[C@@H](O)[C@H](O)[C@H]2O)cc1Cc1ccc(-c2ccc(F)cc2)s1	–	–	Japanese type 2 diabetes patients	400 mg, day 18, 24 h urine collection	relative to: baseline	urinary potassium excretion change	-3.04 mEq
Cn1cc(Nc2nc(N)nc(-c3cccc(-n4ccc5cc(C6CC6)cc(F)c5c4=O)c3CO)n2)cn1	–	–	healthy subjects	oral, 300 mg tablet, fed high-fat breakfast	–	drug-related vomiting subjects	0%
Cn1cc(-c2ccc(-c3cncc(Cl)c3N3CCC4(CCNC4=O)CC3)cc2)cn1	COLO 205	gene expression, microarray, measured: TLE1 mRNA	–	concentration not given, 2 h	relative to: untreated cells	log2 fold change	3.98
O=c1c(-c2ccc(O)cc2)coc2c([C@@H]3O[C@H](CO)[C@@H](O)[C@H](O)[C@H]3O)c(O)ccc12	Caco-2 monolayers	–	–	100 µg/mL, 2 h	relative to: Papp(BL-AP) over Papp(AP-BL)	efflux ratio	0.12 ± 0.04
Cc1c(C(=O)O)ccc2c3n(nc12)[C@@H]1[C@H](C3)N(CC2CC2)[C@@]2(C(=O)Nc3cc(Cl)ccc32)[C@H]1c1cccc(Cl)c1F	–	–	human patients phase Ia	oral, dose not given, grade ≥3, all patients	–	decreased appetite incidence	0%
Cn1cnc2ccc(Nc3c(F)ccc(NS(=O)(=O)N4CC(F)C4)c3Cl)c(Cl)c2c1=O	–	measured: grade 1-2, lipase increased	human patients	dose not given, monotherapy trial	relative to: patients	patients with lipase increased	3%

Some of these lines once more:
SMILES	tested on	assay	system	setting	scale	endpoint	value
CNC(=O)c1ccc(-c2cnc3ncc(Cc4ccc5ncccc5c4)n3n2)cc1F	–	CTCAE v4.0, any causality	human hepatocellular carcinoma patients	oral, 600 mg twice daily, expansion cohort at RP2D	–	decreased appetite incidence (all grades)	18%
O=S(=O)(NCCSc1ccccn1)c1ccc(Br)cc1	–	–	aqueous buffer	pH 7.4	–	solubility	< 4 µg/mL
O=C(O)CCc1ccccc1OCc1ccccn1	HDAC6 ZnF-UBD domain	–	–	–	–	Kd	> 1 mM
